# Published values pooled from the literature.
# A part holds a random share of what one study measured. Positions count from the first letter of the parent shown.
# Chain of UniProt Q9NY57 (whole entry, looked up): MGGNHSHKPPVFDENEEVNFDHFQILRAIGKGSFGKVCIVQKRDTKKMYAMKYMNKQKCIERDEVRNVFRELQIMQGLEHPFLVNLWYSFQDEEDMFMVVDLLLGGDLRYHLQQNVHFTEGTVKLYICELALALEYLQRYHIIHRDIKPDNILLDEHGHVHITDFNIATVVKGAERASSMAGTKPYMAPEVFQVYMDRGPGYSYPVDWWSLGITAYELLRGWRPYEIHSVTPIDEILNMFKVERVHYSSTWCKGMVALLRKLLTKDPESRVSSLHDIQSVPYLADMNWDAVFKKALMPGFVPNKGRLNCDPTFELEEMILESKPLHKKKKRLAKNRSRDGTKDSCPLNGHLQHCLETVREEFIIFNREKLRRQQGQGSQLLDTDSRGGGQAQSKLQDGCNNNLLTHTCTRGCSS
# Chain of UniProt P06213 (whole entry, looked up): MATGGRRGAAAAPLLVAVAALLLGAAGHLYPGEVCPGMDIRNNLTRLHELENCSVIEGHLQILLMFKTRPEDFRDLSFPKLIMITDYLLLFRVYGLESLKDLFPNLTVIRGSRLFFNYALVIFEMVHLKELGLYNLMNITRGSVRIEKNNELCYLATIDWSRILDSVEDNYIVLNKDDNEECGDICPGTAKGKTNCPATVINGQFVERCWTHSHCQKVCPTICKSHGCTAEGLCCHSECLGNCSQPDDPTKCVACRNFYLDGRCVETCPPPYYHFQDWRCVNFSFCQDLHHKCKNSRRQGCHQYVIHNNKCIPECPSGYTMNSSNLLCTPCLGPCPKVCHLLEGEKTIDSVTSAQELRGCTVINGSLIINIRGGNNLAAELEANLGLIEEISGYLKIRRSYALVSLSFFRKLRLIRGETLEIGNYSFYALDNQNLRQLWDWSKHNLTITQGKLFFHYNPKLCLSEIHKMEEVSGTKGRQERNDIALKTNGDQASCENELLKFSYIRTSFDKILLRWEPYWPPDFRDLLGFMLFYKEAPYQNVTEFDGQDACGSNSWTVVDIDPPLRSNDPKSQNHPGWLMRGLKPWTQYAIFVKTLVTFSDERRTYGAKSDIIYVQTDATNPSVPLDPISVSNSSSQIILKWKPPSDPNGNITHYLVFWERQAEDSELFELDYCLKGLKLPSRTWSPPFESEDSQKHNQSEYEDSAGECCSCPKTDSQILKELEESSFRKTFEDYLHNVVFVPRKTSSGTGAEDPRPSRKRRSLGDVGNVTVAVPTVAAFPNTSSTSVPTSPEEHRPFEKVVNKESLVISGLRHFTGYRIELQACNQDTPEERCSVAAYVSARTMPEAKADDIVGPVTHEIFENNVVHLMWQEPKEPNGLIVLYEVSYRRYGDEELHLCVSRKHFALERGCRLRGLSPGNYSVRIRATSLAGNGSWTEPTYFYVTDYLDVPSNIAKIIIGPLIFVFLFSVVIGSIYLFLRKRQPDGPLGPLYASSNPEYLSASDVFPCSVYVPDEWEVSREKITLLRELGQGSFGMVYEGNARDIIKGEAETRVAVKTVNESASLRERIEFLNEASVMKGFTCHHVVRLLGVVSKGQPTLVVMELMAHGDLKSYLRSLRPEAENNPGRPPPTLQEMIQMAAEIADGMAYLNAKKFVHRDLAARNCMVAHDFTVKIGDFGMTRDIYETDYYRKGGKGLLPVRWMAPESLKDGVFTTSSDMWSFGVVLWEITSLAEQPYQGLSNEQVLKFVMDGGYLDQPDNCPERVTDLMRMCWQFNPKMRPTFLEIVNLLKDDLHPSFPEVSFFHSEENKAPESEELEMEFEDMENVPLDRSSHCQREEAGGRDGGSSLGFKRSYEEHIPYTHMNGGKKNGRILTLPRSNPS
# Chain of UniProt Q12852 (whole entry, looked up): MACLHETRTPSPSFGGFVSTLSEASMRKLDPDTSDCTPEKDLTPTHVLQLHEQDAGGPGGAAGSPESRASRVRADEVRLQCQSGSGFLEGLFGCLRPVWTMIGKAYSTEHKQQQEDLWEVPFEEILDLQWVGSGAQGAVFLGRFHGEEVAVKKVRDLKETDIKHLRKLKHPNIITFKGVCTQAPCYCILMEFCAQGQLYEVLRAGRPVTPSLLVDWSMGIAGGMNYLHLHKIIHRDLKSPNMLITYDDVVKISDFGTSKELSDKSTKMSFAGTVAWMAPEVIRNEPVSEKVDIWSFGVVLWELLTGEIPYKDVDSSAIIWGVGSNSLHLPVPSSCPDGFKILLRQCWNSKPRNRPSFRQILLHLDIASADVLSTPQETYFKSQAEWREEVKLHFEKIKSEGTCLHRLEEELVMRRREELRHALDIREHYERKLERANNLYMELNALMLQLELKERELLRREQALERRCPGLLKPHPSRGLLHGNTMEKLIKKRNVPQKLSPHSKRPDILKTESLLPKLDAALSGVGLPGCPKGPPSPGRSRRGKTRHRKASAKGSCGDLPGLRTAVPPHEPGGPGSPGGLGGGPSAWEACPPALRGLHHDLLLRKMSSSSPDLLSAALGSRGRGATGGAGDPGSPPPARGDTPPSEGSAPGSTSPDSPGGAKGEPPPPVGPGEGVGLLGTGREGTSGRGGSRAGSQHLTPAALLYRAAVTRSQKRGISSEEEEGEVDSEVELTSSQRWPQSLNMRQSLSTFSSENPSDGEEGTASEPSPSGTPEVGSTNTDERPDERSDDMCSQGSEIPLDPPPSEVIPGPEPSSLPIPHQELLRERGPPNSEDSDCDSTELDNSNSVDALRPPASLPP
# Chain of UniProt P16234 (whole entry, looked up): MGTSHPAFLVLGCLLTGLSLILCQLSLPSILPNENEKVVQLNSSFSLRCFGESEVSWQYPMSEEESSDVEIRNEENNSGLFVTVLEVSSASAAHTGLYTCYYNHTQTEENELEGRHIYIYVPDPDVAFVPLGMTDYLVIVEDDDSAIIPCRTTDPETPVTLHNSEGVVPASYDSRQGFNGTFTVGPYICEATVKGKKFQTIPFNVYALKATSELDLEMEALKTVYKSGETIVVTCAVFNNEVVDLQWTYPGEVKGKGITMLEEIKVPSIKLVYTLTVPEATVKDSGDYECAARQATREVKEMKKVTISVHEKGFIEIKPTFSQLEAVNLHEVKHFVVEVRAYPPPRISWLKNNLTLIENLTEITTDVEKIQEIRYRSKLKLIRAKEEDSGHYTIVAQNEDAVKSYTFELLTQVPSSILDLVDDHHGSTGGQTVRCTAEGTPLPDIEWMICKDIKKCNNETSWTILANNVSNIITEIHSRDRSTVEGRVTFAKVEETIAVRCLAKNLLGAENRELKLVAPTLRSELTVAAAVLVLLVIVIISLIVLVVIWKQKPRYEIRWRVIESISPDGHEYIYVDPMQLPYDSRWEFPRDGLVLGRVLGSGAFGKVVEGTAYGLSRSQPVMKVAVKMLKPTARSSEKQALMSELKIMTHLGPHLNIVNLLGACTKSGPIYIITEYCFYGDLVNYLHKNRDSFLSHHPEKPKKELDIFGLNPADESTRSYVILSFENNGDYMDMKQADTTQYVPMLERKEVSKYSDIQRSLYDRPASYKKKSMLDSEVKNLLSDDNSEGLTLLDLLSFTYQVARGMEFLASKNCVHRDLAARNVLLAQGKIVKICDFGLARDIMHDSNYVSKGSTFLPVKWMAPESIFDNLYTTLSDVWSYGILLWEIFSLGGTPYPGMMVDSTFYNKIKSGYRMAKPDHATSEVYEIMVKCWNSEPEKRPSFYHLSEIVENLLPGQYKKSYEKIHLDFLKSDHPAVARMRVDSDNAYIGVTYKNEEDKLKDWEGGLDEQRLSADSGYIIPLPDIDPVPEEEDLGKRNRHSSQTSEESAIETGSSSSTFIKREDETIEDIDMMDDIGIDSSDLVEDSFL
# Chain of UniProt Q9Y6M4 (whole entry, looked up): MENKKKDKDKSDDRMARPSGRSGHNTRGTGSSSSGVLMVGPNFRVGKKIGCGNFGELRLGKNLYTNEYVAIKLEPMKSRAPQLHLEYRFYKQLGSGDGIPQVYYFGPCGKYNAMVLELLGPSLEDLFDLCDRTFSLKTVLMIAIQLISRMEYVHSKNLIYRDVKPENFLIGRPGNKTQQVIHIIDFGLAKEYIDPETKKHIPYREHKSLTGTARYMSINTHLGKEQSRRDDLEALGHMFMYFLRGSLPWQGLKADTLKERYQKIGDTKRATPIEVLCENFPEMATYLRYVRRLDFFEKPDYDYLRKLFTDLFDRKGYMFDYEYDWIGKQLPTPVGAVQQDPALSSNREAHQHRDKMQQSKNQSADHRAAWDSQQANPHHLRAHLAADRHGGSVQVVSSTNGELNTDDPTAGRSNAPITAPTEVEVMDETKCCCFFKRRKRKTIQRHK

# Series 1
# SMILES: Nc1cnc(N2CCc3cc(S(=O)(=O)Nc4c(F)cc(Cl)cc4F)cc(N4CCCC4=O)c32)nc1
# Concentration: 1 µM
target,assay,remaining binding
"Serine/threonine-protein kinase 32B (STK32B, Homo sapiens, UniProt Q9NY57)","cell-free assay, competition with immobilised ligand",74%
"Serine/threonine-protein kinase MRCK gamma (CDC42BPG, Homo sapiens, UniProt Q6DT37)",competition binding,100%
"Serine/threonine-protein kinase 17A (STK17A, Homo sapiens, UniProt Q9UEE5)","cell-free assay, competition with immobilised ligand",100%
"Ephrin type-A receptor 4 (EPHA4, Homo sapiens, UniProt P54764)","cell-free assay, competition with immobilised ligand",100%
"Insulin receptor (INSR, Homo sapiens, UniProt P06213)","cell-free assay, competition with immobilised ligand",89%
"Homeodomain-interacting protein kinase 4 (HIPK4, Homo sapiens, UniProt Q8NE63)","cell-free assay, competition with immobilised ligand",100%
"NUAK family SNF1-like kinase 1 (NUAK1, Homo sapiens, UniProt O60285)","cell-free assay, competition with immobilised ligand",100%
"Myosin light chain kinase (MYLK3, Homo sapiens, UniProt Q32MK0)","cell-free assay, competition with immobilised ligand",100%
"Calcium/calmodulin-dependent protein kinase type 1D (CAMK1D, Homo sapiens, UniProt Q8IU85)","cell-free assay, competition with immobilised ligand",97%
"Serine/threonine-protein kinase Chk2 (CHEK2, Homo sapiens, UniProt O96017)","cell-free assay, competition with immobilised ligand",92%
"Platelet-derived growth factor receptor alpha (PDGFRA, Homo sapiens, UniProt P16234)","cell-free assay, competition with immobilised ligand",89%
"Cyclin-dependent kinase 18 (CDK18, Homo sapiens, UniProt Q07002)","cell-free assay, competition with immobilised ligand",100%
"Mitogen-activated protein kinase kinase kinase 12 (MAP3K12, Homo sapiens, UniProt Q12852)","cell-free assay, competition with immobilised ligand",100%
"Receptor-type tyrosine-protein kinase FLT3 (FLT3, Homo sapiens, UniProt P36888, F691L/ITD)","cell-free assay, competition with immobilised ligand",96%
"Mitogen-activated protein kinase 8 (MAPK8, Homo sapiens, UniProt P45983)","cell-free assay, competition with immobilised ligand",78%
"Cyclin-dependent kinase-like 3 (CDKL3, Homo sapiens, UniProt Q8IVW4)","cell-free assay, competition with immobilised ligand",100%
"Serine/threonine-protein kinase MAK (MAK, Homo sapiens, UniProt P20794)","cell-free assay, competition with immobilised ligand",96%
"Dual specificity tyrosine-phosphorylation-regulated kinase 2 (DYRK2, Homo sapiens, UniProt Q92630)","cell-free assay, competition with immobilised ligand",89%
"Casein kinase I isoform gamma-3 (CSNK1G3, Homo sapiens, UniProt Q9Y6M4)","cell-free assay, competition with immobilised ligand",78%

# Series 2
# Target: CREBZF, bZIP domain (human)
# Method: DHFR protein complementation
# Medium: yeast
# Notes: single substitutions, most at no-binding floor
# Relative to: wild-type JUN-FOS pair
# Reading: higher = stronger binding
# Starting sequence: JUN, bZIP domain (human); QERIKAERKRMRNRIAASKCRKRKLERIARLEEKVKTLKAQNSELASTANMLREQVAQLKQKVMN; partner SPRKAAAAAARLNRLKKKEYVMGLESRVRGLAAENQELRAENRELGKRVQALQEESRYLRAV
Variant,binding fitness [natural log]
A49P,-1.39
L45T,-1.51
E44A,-1.53
T37A,-1.43
E54L,-1.38
E32H,-1.45
A57G,-1.49
E33G,-1.48

# Series 3
# Target: NT-3 growth factor receptor (NTRK3, Homo sapiens, UniProt Q16288)
# Chain of UniProt Q16288 (whole entry, looked up): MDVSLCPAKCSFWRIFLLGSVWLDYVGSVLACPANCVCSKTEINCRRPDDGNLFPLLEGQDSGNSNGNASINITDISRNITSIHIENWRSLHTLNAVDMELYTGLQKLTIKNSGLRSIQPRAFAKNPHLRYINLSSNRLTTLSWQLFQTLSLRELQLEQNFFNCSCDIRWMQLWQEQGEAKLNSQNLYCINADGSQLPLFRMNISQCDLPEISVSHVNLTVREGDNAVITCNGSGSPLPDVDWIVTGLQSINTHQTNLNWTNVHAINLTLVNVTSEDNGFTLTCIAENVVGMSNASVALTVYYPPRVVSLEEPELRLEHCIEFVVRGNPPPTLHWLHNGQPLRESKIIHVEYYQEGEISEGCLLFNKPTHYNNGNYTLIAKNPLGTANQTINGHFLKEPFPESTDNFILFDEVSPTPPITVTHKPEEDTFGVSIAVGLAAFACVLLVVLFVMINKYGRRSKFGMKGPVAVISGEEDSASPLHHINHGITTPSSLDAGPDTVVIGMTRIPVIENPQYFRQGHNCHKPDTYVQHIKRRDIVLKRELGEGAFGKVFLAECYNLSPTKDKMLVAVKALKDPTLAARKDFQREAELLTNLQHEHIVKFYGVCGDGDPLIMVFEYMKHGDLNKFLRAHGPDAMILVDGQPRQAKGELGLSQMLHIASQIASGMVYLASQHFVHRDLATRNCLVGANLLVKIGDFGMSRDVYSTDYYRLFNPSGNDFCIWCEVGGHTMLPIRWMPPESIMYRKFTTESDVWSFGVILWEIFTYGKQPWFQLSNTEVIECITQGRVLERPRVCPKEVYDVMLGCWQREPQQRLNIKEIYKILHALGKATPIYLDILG
# Observed: enzyme activity
# Action: inhibitor
# Concentration: 0.5 µM
# Relative to: control
Compound,remaining activity
COc1ccc(OC)c2c(=S)c3ccccc3[nH]c12,93.6%
Cc1cccc(-c2[nH]c(C(C)(C)C)nc2-c2ccc3c(c2)OCO3)n1,92.4%
O=C1NC(=O)C(c2cn(CCCO)c3ncccc23)=C1c1cnccn1,79.7%
CC(C)[C@H](CO)Nc1nc(Nc2cc(N)cc(Cl)c2)c2ncn(C(C)C)c2n1,4.42%
Nc1ccc2ncnc(NCCc3ccc(Oc4ccccc4)cc3)c2c1,98.4%
NCCNc1ncc(C(N)=O)c(Nc2cccc(C(F)(F)F)c2)n1,59.7%
N#CC(C#N)=C(N)/C(C#N)=C/c1ccc(O)cc1,95.5%
Cc1nc(-c2ccccc2)c(-c2ccncc2)o1,105%
Oc1ccc(-c2nc(-c3ccncc3)c(-c3ccc(F)cc3)[nH]2)cc1,101%
COc1cc2ncnc(Nc3ccc(Oc4ccccc4)cc3)c2cc1OC,99.7%
CN(C)c1ccc(C=C2C(=O)Nc3ccccc32)cc1,36.3%
Nc1ncnc2n[nH]c(Nc3ccc(F)cc3)c12,81.5%
O=C(Nc1cccc(Nc2cc(Nc3cccc(C(F)(F)F)c3)ncn2)c1)C1CC1,95.1%
Cn1c2ccccc2c2c3c(c4c5ccccc5n(CCC#N)c4c21)CNC3=O,0.198%

# Series 4
# Target: RNA binding protein fox-1 homolog 2, RRM domain, GST-SBP tag (RBFOX2, Homo sapiens, UniProt O43251-10, residues 100-194)
# Method: RNA Bind-n-Seq
# Molecule type: RNA
# Medium: in vitro
# Concentration: 365 nM
# Notes: natural RNA segment, single round, ends assumed
# Relative to: no-protein control
# Reading: higher = stronger binding
# Construct (chain): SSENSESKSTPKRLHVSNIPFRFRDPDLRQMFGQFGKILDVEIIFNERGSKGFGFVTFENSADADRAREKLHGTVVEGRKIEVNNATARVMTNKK
Strand,RBNS enrichment (R)
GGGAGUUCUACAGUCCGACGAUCCAAGAAAUCCACAUUUGUGCUGCAGAUACUGGAAACCAAACUGCAGCUGCAGCCAUUGGAAGAAACCUGUUACCUGAAUGCGAUUUCCUCCAUUUUCUCAACAGCUGGAGUGGAAUUCUCGGGUGCCAA,0.314
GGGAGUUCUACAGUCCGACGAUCUGCUGGAUUAUUGUCUGUCUUUAUAGCAAGUUCCAGUAAACCACAAGUAUGGCAAAGCUUAUCCAAUUUUAUGCUUGGAGCAGUCAGUACAUACCAGUUUCUGAUGUUUCUGGAAUUCUCGGGUGCCAA,0.324
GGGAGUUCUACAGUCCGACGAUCUACAUAGUGGAGUAGUUAGUUACCUGAUAACAGUCUUGUUAUUUGGGUCUCUUAGACCUUACCUCUCAACUCCCUCAAGAGUACCAGUCUCUGAAGUUAUAAUGCUUUGGUGGAAUUCUCGGGUGCCAA,0.24
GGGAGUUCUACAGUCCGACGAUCUCUAACCUACAGGAUGGAGUAAAACAACUGCUACAGUUCAGCACCUGUUUUAUGUGCCGAAUCACUGUGGGGAAAGGUCAGGAAGGUAUAGUCCUUCAAUAGGAAAUUGUUGGAAUUCUCGGGUGCCAA,0.393
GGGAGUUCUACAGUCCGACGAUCCCUAAGGCUUUGUGGGUAAGAUUACUUGCCACCUGCUUACUCUUAUGAAAUAGUCCAGUGCUCAUAUUAUCACUUGUCUCGUCUCCAGCAAAUACGAGGGGGCUUCUGAAUGGAAUUCUCGGGUGCCAA,0.438
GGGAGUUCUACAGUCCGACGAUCCUUCUGGUGGAGCUGUGCCUGGCCCUGUAGGCCCAGGGUUGGCUGGAAGGUGACAUCUGUGUUUCGUUUUAGCUGAGGUUGGCAGAAACGUUCCCAAACUCCCCCAGCCCUGGAAUUCUCGGGUGCCAA,0.285
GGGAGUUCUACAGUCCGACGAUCGCCACCGAUCCUAUCCAGCUAGCUCUUCACCAGGCCUUGUAACCAACUCCUUGUCGUCCUAAUCUGCAAACCCAGACCCAGACCCUUUCCGCAGCCGCCUCCUCUUCCUCUGGAAUUCUCGGGUGCCAA,0.517
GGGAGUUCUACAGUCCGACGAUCUAGCAAUCUACCUUAUAUAGAGCCUUCAGAAACUGUGAGUGGAAAUGAAUGCGCAGCGUAUGACUGUUGGUGAUAAGUGUAUCUGUGUGAGUGUGUGCAACUACUUGUGUUGGAAUUCUCGGGUGCCAA,2.24

# Repeated from above (series 2):
Variant,binding fitness [natural log]
E32H,-1.45
E33G,-1.48
E44A,-1.53
